Assay results of several laboratories.
Every numbered part comes from another study and shows a few of its results, in no order.

Study 1 — method: protein-binding microarray; molecule type: double-stranded DNA, one strand shown; medium: in vitro; tested at: 250 nM; setting: 60-bp whole probe; together with: salmon DNA 0.4 mg/ml; relative to: random background probes; reading: higher = stronger binding; endpoint: log fluorescence; shared flanks, not repeated: GCCTAGCAC … GTCTTGATTCGCTTGACGCTGCTG
Target: Interferon regulatory factor 5, full length, phosphomimetic (IRF5, Homo sapiens, UniProt Q13568-2, residues 1-514, K96S/S451D/S453D/S456D/S462D)
GACGGACTGCTCTTCCTGACGTGCTAG: -0.523 z-score
TTAGGACTGTGGACTGGGTTAGTGCTA: -0.41 z-score
GACGGTCTCCTTCTCCTGAGGTGCTAG: -0.118 z-score
TCAAAGATTCCTCTCACACTGTGCTAG: 0.0416 z-score
GACGGTCTAGGTATCGGGACGTGCTAG: 0.466 z-score
TCATTTATGTCCTGTCTAACTGTGCTA: 0.453 z-score

Study 2 — method: universal PBM; molecule type: double-stranded DNA, one strand shown; medium: in vitro; tested at: 600 nM; reading: higher = stronger binding; endpoint: E-score
Target: Sal-like protein 4, full length isoform A (SALL4, Homo sapiens, UniProt Q9UJQ4, residues 1-1053)
Sequence of UniProt Q9UJQ4 (whole entry, looked up): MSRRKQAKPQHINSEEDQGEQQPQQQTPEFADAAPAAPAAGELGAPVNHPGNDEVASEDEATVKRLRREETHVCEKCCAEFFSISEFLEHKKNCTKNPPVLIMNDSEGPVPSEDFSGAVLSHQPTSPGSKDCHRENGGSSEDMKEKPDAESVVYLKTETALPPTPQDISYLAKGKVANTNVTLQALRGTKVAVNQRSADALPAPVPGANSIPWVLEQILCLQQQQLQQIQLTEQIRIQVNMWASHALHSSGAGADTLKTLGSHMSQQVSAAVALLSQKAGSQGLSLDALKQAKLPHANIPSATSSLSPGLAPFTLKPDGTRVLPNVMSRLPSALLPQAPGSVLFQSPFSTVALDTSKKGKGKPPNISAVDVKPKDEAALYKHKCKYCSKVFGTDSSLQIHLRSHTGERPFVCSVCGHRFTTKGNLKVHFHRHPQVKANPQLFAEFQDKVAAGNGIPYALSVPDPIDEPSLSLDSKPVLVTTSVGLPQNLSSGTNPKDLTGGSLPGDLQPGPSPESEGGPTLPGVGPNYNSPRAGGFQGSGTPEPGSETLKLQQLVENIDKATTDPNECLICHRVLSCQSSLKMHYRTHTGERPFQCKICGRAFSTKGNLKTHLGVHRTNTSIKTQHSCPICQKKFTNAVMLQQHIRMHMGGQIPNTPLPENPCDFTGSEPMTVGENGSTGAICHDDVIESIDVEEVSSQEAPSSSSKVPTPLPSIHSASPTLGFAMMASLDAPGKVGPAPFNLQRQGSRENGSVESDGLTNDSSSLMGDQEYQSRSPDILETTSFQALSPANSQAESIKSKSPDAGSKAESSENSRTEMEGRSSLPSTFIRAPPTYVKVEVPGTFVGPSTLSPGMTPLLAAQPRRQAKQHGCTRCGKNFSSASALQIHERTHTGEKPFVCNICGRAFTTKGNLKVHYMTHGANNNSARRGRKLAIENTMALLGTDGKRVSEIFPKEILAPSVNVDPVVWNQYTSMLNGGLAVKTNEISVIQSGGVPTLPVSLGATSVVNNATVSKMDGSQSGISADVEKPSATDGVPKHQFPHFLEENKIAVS
Setting: 8-mer, flanks averaged, mean of replicates
CATCTGAG: -0.107
GAGCACGC: -0.312
CTCCTTGA: -0.0539
ATGCGATG: -0.0269
CTGCATTA: -0.0199
ACTCCACG: -0.175
CGTTAGTA: 0.129

Study 3 — method: protein binding microarray; molecule type: double-stranded DNA, one strand shown; medium: in vitro; tested at: not given; relative to: not given; reading: higher = stronger binding; endpoint: E-score
Target: Histone acetyltransferase KAT6A, winged helix 1, GST fusion (KAT6A, Homo sapiens, UniProt Q92794, residues 1-85)
Setting: 8-mer, flanks averaged, mean of 2 arrays, mostly near background
Target sequence (chain): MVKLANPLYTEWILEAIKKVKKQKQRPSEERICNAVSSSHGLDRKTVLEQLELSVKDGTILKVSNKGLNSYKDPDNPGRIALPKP
CCGCTTAG: 0.285
AAAGCCGT: 0.325
GCAGGGTA: -0.168
ACAGACAC: -0.14
CCTGTAAG: -0.175
AAGCATAC: -0.0482

Single results of other studies
PhoQ, residues 284 288 289 292 302 303 TYGVAM — fold induction (PhoP, residues 12 14 15 18 19 STWGI (Escherichia coli, UniProt P23836); Sort-seq, measured: YFP reporter; E. coli; PhoQ-PhoP variant library, together with: 10 µM Mg2+; relative to: high Mg2+ state, higher = stronger signaling): 6.32
